# Results of several laboratories.
# ± marks the error that the study gave.
# PRKD2: Serine/threonine-protein kinase D2 (PRKD2, Homo sapiens, UniProt Q9BZL6)
# UniProt Q9BZL6, sequence (whole entry, looked up): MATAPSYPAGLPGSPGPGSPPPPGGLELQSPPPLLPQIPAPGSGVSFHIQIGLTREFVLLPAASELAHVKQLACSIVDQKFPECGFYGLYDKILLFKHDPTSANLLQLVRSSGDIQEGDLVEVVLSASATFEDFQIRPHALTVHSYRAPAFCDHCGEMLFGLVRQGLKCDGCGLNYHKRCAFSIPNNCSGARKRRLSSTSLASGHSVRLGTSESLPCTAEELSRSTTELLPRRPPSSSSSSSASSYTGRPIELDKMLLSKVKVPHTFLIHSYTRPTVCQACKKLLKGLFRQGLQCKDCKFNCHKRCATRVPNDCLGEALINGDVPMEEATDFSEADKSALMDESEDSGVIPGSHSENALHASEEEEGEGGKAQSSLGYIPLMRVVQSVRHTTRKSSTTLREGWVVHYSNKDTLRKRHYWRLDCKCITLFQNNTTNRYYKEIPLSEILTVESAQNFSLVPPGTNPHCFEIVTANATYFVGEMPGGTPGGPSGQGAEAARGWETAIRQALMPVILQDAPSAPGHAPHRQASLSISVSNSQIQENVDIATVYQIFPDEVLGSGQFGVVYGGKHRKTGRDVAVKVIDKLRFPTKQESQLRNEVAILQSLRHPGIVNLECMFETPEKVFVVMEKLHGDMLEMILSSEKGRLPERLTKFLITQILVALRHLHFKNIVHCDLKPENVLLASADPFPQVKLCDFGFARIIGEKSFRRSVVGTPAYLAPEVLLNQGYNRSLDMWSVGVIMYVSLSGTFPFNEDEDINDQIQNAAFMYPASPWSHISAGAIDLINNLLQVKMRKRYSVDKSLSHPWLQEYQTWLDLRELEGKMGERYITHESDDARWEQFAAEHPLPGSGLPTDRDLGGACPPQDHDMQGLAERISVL
# UniProt Q00534, sequence (whole entry, looked up): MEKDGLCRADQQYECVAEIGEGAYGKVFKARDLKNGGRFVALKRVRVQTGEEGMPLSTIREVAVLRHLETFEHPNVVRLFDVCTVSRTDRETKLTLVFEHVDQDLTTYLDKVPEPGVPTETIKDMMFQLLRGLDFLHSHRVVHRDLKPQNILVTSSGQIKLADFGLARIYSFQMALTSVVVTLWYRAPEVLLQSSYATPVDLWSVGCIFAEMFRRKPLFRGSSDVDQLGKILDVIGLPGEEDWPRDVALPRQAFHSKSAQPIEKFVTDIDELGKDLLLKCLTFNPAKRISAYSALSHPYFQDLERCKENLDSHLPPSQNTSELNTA
# UniProt Q00535, sequence (whole entry, looked up): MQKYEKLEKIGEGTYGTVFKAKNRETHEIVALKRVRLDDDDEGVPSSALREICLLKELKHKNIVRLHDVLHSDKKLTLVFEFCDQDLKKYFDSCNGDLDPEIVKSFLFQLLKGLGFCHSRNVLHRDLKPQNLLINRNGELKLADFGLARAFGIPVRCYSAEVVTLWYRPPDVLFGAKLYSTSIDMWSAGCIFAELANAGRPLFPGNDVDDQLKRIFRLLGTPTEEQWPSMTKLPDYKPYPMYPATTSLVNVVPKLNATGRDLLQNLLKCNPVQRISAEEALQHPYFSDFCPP
# UniProt P36894, sequence (whole entry, looked up): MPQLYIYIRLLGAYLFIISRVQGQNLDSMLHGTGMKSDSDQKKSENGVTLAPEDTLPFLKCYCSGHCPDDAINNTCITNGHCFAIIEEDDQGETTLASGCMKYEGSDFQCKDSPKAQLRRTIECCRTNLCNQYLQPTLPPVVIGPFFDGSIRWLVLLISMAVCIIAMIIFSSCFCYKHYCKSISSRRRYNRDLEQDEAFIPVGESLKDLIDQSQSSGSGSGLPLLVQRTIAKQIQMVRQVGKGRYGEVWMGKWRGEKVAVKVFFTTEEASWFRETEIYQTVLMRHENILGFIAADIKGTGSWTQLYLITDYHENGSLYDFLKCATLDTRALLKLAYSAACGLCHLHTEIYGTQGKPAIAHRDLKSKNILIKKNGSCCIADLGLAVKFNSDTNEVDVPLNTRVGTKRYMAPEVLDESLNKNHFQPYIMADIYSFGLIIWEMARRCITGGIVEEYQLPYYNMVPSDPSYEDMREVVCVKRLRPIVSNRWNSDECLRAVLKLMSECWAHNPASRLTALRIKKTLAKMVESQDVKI
# UniProt P29317, sequence (whole entry, looked up): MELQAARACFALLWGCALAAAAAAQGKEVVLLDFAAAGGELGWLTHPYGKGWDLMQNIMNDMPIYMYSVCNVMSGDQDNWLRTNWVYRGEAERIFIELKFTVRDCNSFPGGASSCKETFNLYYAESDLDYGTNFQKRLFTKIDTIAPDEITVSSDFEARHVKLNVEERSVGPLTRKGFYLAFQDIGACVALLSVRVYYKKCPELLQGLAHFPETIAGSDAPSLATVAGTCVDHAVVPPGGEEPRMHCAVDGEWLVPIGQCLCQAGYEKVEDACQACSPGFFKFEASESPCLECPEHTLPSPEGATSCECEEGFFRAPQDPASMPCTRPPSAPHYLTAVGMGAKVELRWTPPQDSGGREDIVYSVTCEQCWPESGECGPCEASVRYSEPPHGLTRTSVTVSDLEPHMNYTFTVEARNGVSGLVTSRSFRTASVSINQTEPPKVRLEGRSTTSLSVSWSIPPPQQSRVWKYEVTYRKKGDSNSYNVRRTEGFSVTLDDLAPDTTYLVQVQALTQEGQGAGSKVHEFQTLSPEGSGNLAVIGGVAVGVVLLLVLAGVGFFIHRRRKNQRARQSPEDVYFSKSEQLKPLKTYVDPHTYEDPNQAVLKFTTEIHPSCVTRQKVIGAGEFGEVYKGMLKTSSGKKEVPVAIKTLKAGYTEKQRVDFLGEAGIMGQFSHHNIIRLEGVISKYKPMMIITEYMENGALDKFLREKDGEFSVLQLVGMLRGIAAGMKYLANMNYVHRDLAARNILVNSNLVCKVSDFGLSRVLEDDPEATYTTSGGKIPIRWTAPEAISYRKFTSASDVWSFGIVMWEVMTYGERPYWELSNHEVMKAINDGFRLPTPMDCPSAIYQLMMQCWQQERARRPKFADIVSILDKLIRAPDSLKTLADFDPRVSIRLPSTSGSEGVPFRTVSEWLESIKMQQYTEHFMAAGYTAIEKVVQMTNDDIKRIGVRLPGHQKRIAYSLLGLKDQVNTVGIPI
# UniProt Q52WX2, sequence (whole entry, looked up): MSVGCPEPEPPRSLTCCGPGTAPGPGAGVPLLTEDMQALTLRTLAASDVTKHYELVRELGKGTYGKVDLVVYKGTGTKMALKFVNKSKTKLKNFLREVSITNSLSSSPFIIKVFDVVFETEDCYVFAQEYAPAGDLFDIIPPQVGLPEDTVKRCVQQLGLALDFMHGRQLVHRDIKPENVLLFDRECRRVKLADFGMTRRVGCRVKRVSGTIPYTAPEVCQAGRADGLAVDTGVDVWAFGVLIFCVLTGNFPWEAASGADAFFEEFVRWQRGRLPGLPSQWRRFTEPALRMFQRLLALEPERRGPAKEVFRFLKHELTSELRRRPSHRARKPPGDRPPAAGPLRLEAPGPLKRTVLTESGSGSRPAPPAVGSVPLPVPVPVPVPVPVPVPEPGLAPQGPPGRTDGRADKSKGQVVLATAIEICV
# UniProt Q16620, sequence (whole entry, looked up): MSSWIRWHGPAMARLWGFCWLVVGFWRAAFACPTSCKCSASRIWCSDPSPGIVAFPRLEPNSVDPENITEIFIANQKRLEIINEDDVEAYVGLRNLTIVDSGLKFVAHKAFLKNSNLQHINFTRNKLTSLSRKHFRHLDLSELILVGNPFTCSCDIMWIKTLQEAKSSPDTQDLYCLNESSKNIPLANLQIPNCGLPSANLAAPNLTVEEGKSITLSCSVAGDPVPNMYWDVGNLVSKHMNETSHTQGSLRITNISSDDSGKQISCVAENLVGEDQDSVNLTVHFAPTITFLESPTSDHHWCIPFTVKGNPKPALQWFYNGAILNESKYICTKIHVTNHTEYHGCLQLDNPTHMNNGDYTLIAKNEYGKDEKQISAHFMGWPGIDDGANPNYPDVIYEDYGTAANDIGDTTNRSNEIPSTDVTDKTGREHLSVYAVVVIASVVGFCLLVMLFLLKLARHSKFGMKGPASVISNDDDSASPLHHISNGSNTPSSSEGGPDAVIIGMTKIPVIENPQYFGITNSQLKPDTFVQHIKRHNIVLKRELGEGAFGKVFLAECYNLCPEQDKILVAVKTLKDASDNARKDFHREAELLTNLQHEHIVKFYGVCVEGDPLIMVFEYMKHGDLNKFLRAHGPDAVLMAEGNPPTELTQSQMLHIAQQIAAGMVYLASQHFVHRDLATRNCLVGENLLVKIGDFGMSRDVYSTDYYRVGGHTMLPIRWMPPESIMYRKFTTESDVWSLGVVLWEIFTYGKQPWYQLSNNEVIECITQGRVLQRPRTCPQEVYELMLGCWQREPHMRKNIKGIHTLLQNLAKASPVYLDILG
# UniProt Q99572, sequence (whole entry, unmodified, looked up): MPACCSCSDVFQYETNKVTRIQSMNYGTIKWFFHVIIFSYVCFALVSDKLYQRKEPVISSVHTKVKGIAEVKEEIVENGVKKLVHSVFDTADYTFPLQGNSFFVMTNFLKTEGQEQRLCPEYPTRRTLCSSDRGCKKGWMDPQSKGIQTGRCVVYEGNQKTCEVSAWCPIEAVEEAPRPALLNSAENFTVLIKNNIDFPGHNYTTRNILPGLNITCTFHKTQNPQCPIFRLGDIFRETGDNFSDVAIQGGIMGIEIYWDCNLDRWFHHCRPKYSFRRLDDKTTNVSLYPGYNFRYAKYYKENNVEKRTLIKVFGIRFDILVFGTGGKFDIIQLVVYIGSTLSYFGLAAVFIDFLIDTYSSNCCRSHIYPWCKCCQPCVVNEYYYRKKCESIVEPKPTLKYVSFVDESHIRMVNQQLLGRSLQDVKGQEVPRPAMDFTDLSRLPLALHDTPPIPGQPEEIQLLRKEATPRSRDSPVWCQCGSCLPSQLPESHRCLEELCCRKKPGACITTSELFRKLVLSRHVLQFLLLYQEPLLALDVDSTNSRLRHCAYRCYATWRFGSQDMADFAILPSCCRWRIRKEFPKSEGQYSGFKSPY
SMILES,target,test,test system,setting,how to read,remaining activity
COc1cc(Nc2ncc3c(n2)-c2ccc(Cl)cc2C(c2c(F)cccc2OC)=NC3)ccc1C(=O)O,MST4,kinase activity,,1 µM,,100%
COc1cc(F)ccc1-c1ncnc(Nc2cccc(C[S@](C)(=N)=O)c2)n1,PRKD2,kinase activity,,"10 µM, together with: 10 µM ATP",,102%
C=CC(=O)N1CCC([C@@H]2CCNc3c(C(N)=O)c(-c4ccc(Oc5ccccc5)cc4)nn32)CC1,"Cyclin-dependent kinase 5, with p25 (CDK5, Homo sapiens, UniProt Q00535)","kinase activity, inhibitor, HotSpot radiometric",,"100 nM, together with: ATP 10 µM",,93.3 ± 0.9%
COc1cc(-c2cncc3c2CN(C)Cc2cc(N4CCNCC4)ccc2-3)cc(OC)c1OC,PRKD2,kinase activity,,"1 µM, human enzyme, together with: ATP 10 µM",reference: DMSO control,100%
CNc1ncc2c(/C=C/C(=O)N3CCC(OC)CC3)nn(Cc3cccc(C(F)(F)F)c3)c2n1,"EPHA2 (Homo sapiens, UniProt P29317)","kinase activity, inhibitor",,1 µM,reference: untreated control,104%
C=CC(=O)N1CCC[C@@H](n2nc(-c3ccc(Oc4ccccc4)cc3)c3c(N)ncnc32)C1,"NTRK2 (Homo sapiens, UniProt Q16620)",,,0.1 µM,,290%
COc1cc(N2CCN(C)CC2)ccc1Nc1nc(N)n(C(=O)NCc2c(Cl)cccc2Cl)n1,"SBK1 (Homo sapiens, UniProt Q52WX2)",enzyme activity,,10 µM,reference: control,4.6%
COc1ccc(F)cc1C(=O)NCc1ccc(-c2nn([C@@H](C)C(F)(F)F)c(N)c2C(N)=O)cc1,"RPS6KA4 (Homo sapiens, UniProt O75676)","kinase activity, inhibitor, HotSpot radiometric",,"1000 nM, together with: ATP at Km",,97.1 ± 1.6%
C=CC[C@H]1c2ccc(OC)c(OC)c2CN2CCc3cc4c(cc3[C@@H]12)OCO4,"P2X purinoceptor 7 (P2RX7, Homo sapiens, UniProt Q99572)","ATP-evoked current, inhibitor, whole-cell patch clamp",HEK293 transfected,1 µM,,89.9%
C=CC(=O)N1CCC[C@@H](n2nc(-c3ccc(Oc4ccccc4)cc3)c3c(N)ncnc32)C1,"FGFR3 (Homo sapiens, UniProt P22607)","kinase activity, inhibitor, HotSpot radiometric",,"100 nM, together with: ATP 10 µM",,74.4 ± 0.8%
COc1cc(N2CCN(C)CC2)ccc1Nc1nc(N)n(C(=S)NCc2c(Cl)cccc2Cl)n1,"ANKK1 (Homo sapiens, UniProt Q8NFD2)",enzyme activity,,10 µM,reference: control,15%
O=C(O)c1ccc(Nc2ncc3c(n2)-c2ccc(Cl)cc2C(c2c(F)cccc2F)=NC3)cc1,LOK(h),kinase activity,,1 µM,,95%
O=C(NC1CCC1)c1ccc2nc(-c3cccc(NS(=O)(=O)NCCN4CCCCC4)c3)cn2c1,"BMPR1A (Homo sapiens, UniProt P36894)",enzyme activity,,10 µM,,100%
Cc1cc(Nc2cc(N3CCN(C)CC3)nc(Sc3ccc(NC(=O)C4CC4)cc3)n2)[nH]n1,"Cyclin-dependent kinase 6, with cyclin D3 (CDK6, Homo sapiens, UniProt Q00534)","kinase activity, KinaseProfiler",,"0.03 µM, species human",reference: control,99%
